Measured values pooled from the literature.
Every numbered part comes from another study and shows a few of its results, in no order.

Sample 1
Target: Fragile X messenger ribonucleoprotein 1, C-terminal low-complexity region (Fmr1, Mus musculus, UniProt P35922)
Method: RNA Bind-n-Seq
Form: RNA
Sample: in vitro
Tested at: 200 nM
Notes: whole 134-nt RNA, ends assumed
With: 150 mM KCl
Baseline: input library
Reading: higher = stronger binding
Oligonucleotide | log2 enrichment
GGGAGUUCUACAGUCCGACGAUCUGGCCCUGGUGGCAUGCGGGGAGGUAGAGGUGGCCUCAUGGAUCGUGGUGGUCCCGGUGGAAUGUUCAGAGGUGGCCGUGGUGGAGACAGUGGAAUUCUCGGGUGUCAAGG | 0.218
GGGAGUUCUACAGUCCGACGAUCCCUGUGCUACACAUCGUAUGUACCGAAUCGGGGAAAGGGGUUUUUUUGGGGAAAAAGGGGAAAGUAUUAUGUUACGCCGUUCGGAUCUGCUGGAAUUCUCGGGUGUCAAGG | 0.246
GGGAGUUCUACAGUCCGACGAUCUCAAGUCCUGUGCUACACAUCGUAUGUACCGAAUCGGAAGGGGAAGGGGAAGGGAAAGUAUUAUGUUACGCCGUUCGGAUCUGCACUUCCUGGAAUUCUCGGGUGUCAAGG | 0.794
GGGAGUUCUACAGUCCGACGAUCAAGUCCUGUGCUACACAUCGUAUGUACCGAAUCGGGAAAAAAAGGGUUUGGGUGGGAAAGUAUUAUGUUACGCCGUUCGGAUCUGCACUUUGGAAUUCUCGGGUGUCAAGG | 0.888
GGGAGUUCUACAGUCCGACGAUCAAGUCCUGUGCUACACAUCGUAUGUACCGAAUCGGAAAAAGGAAAGGUUUUUUUGGAAAGUAUUAUGUUACGCCGUUCGGAUCUGCACUUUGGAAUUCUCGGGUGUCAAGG | -1.27
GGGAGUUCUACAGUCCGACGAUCAAGUCCUGUGCUACACAUCGUAUGUACCGAAUCGGGUGGGAAAGGGUUUUUUUGGGAAAGUAUUAUGUUACGCCGUUCGGAUCUGCACUUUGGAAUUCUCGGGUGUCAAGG | 0.742
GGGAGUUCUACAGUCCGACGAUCAGUCCUGUGCUACACAUCGUAUGUACCGAAUCGGGGUUUUGGGUUUUGGGGUUUUGGGAAAGUAUUAUGUUACGCCGUUCGGAUCUGCACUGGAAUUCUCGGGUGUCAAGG | 0.626
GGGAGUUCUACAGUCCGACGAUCGCAGGAAGUAAAAACAAAUGGAAAUGCUUCGGAUAGUGGCAGGGGUGGGGGUUGCUAAGGUAAGGGUGGGAUGGGAGUGGGUAAAGAGUUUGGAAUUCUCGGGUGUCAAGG | 0.281
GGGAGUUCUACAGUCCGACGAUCCCUGUGCUACACAUCGUAUGUACCGAAUCGGGGAAAAAAGGGAAAAAAGGGGAAAAAAGGAAAGUAUUAUGUUACGCCGUUCGGAUCUGCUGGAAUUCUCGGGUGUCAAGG | -0.317
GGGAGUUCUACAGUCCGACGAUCUGGCCCUGGUGGCAUGCGGGGAGGAAGAGGUGGCCUCAUGGAUCGUGGUGGUCCGGGUGGAAUGUUCAGAGGUGGCCGUGGUGGAGACAGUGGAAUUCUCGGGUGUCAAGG | 0.125
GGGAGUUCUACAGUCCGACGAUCGCAGGAAGUAAAAACAAAUGGAAAUGCUUCGGAUAGUGGCAGGGGUGGGGGUUGCUAAGGAAAGGGUGGGAUGGGAGUGGGUAAAGAGAUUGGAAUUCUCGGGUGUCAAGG | 0.433
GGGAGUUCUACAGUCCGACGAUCUCAAGUCCUGUGCUACACAUCGUAUGUACCGAAUCGGGAAAGGGAAAGGGAGGGAAAGUAUUAUGUUACGCCGUUCGGAUCUGCACUUCCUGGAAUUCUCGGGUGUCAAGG | 0.876
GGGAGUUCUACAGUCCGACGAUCUAGAUAUCCAUAGAAAAGAGAACUCUGGAGCUGCAGAGAAGCCUGUCACCAUCCAUGCCACCCCAGAGGGGACUUCUGAAGCAUGCCGCAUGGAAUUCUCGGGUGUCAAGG | -0.744
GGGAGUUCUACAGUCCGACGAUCAGUCCUGUGCUACACAUCGUAUGUACCGAAUCGGGCCCCCGGCCCCCGGGGCCCCCGGAAAGUAUUAUGUUACGCCGUUCGGAUCUGCACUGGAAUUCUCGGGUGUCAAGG | -0.603

Sample 2
Target: Histone acetyltransferase KAT6A, both winged helices, GST fusion (KAT6A, Homo sapiens, UniProt Q92794, residues 1-181)
Method: protein binding microarray
Form: double-stranded DNA, one strand shown
Sample: in vitro
Tested at: not given
Notes: 8-mer, flanks averaged, mean of 2 arrays, mostly near background
Baseline: not given
Reading: higher = stronger binding
Target sequence (chain): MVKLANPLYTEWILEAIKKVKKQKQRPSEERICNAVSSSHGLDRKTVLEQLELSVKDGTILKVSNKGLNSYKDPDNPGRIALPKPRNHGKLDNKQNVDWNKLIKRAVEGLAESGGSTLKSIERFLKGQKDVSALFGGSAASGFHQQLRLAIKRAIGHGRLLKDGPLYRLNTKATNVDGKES
Oligonucleotide | E-score
CATGTAGG | -0.0761
CTTATATC | -0.077
AGGCCTAT | -0.177
ACGTTTGC | 0.0424
CTCTGGCA | -0.155
ATTGTACA | 0.00148
TCGGCAGA | 0.111
AGGCTAAG | -0.139
ATCACCTC | -0.0159
AATGCGCC | 0.237
AGCTAAAT | -0.133
ACCATGAT | -0.136
CACAGAGG | -0.199
TAGATACA | -0.0769
CAAGTATA | -0.117
AGATACCT | -0.13
ATAAATCC | -0.0363
ATCCTCCC | -0.093
CGTGATAC | 0.045
GAGGCGCA | 0.178
CGGGATAC | 0.211
CTGAAGTA | -0.0725
TAATCACA | -0.13
ATTGGTAG | -0.184
GATCCGCC | 0.156

Sample 3
Target: POU domain, class 5, transcription factor 1, POU domain (Pou5f1, Mus musculus, UniProt P20263, residues 131-289)
UniProt P20263, sequence (131-289, looked up): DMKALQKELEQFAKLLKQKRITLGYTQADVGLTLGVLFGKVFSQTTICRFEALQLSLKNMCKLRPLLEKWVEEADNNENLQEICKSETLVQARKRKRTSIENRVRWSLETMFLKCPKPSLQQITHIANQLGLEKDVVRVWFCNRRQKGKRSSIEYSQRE
Method: Spec-seq
Form: double-stranded DNA, one strand shown
Sample: in vitro
Tested at: not given
Notes: whole probe, mean of replicates
Baseline: not given
Reading: lower = stronger binding
Shared flanks, not repeated: GAGTCGTCTCGTCAGCAC … CCGTAGAGCACTCAGGTC
Oligonucleotide | relative binding energy [ln ratio]
ATGCCACA | 0.592
ATGCCAAT | 0.358
ATGCATAA | -1.89
ATAGTTAT | 0.103
GGAGTAAT | 1.09
ATGCAGCA | 0.136
ATGCAACG | -0.0516
ATGTACAT | -0.19
ATATTGAT | -0.136
ATTGGAAT | -0.357
ATGCGGGG | 0.442
ATGAGTAT | 0.496
ATGCATCA | -0.369
AATTTAAT | -0.253
ATGCTTGG | 0.779
ATCGAAAT | 0.436

Sample 4
Target: TAR DNA-binding protein 43, full length, His tag (TARDBP, Homo sapiens, UniProt Q13148, residues 1-414)
Method: RNA Bind-n-Seq
Form: RNA
Sample: in vitro
Tested at: 20 nM
Notes: 6-mer, flanks averaged, single round
With: 150 mM LiCl
Baseline: input library
Reading: higher = stronger binding
Oligonucleotide | 6-mer enrichment (R)
GGGCGA | 1.12
CAAAAU | 0.895
UCGUCG | 1.04
UAAACA | 0.822
UGCACG | 0.953
ACAAGU | 0.864
UGCACA | 0.926
UGAGCG | 1.06
CGCUGA | 0.855
UUAGAG | 0.991
AUACGC | 0.857
GGGCAA | 1

Sample 5
Target: Sal-like protein 4, full length isoform A (SALL4, Homo sapiens, UniProt Q9UJQ4, residues 1-1053)
UniProt Q9UJQ4, sequence (whole entry, looked up): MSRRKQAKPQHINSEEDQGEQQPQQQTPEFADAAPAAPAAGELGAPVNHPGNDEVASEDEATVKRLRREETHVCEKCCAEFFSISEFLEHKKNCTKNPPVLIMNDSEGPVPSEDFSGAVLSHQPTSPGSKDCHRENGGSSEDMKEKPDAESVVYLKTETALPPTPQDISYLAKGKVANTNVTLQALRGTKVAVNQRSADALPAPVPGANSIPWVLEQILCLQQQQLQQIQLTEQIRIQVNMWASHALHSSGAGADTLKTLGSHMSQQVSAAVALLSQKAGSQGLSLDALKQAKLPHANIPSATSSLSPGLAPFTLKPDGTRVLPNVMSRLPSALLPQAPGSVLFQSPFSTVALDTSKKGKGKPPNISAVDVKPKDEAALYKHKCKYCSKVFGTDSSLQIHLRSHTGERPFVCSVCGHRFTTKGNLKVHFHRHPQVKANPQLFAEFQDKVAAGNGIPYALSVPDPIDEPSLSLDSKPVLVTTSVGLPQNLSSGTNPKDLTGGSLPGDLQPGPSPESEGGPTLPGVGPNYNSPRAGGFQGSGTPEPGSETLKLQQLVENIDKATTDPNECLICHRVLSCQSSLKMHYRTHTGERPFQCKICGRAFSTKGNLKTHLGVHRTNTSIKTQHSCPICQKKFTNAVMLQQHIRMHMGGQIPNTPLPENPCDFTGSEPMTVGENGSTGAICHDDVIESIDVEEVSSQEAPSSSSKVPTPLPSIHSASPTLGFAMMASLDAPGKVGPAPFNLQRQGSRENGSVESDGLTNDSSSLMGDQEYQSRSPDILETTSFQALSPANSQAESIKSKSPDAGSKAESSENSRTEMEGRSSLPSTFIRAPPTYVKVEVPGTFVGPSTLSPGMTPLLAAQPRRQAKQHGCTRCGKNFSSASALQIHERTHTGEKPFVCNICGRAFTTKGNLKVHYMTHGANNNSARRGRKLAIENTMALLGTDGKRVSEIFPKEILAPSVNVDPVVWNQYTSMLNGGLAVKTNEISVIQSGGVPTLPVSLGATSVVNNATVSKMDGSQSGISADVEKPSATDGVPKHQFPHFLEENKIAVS
Method: universal PBM
Form: double-stranded DNA, one strand shown
Sample: in vitro
Tested at: 600 nM
Notes: 8-mer, flanks averaged, mean of replicates
Reading: higher = stronger binding
Oligonucleotide | E-score
AGACCCTC | -0.297
GCACGGCA | -0.142
AAACTCCA | 0.0348
CCAGACGG | -0.333
ACTGAGCG | -0.25
GTAGATAA | 0.314
TAATCCAA | 0.261
AGAGGAGA | -0.08
CCTGCACG | -0.145
CAGCAAGG | -0.183
AACCTTCA | 0.127
AAAGAATC | 0.0752
TTCCCAAA | 0.219
CAGTTTGA | 0.00751
AATGAAAC | 0.225
ACGGGCGG | -0.343
CAGCGAAA | -0.0979
GTAACCCA | 0.0875
AGTGGCAG | -0.185
AAATCTTA | 0.277
ACGAGGTA | -0.0417
ACTCAACA | 0.212

Sample 6
Target: RNA binding protein fox-1 homolog 2, RRM domain, GST-SBP tag (RBFOX2, Homo sapiens, UniProt O43251-10, residues 100-194)
Method: RNA Bind-n-Seq
Form: RNA
Sample: in vitro
Tested at: 365 nM
Notes: natural RNA segment, single round, ends assumed
Baseline: no-protein control
Reading: higher = stronger binding
Target sequence (chain): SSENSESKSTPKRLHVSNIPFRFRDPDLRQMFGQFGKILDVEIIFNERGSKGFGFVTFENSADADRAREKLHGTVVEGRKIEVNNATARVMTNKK
Oligonucleotide | RBNS enrichment (R)
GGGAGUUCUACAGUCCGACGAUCAAUCAGAGUAAUCAUAAUGCAGGGGAGACAUUCAAAUUAGAGACAAGGGAGAAGCAAUGCUGAGGAAGACCCUAGAUAGAGCUCAUUUUACUCCACCUAAUCGUUAUAUCUGGAAUUCUCGGGUGCCAA | 1.14
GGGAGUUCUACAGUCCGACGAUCCUGGGUUACCCGUGUGUGUUAUCGUUUAAACUGUAUUCACAUAAUGUCAUUUGCCUUGCUCACUUGUAACCCCUUCCUCAGGUCCAAGAGAAUGGGAGGAGGGUCAUGUUUGGAAUUCUCGGGUGCCAA | 0.851
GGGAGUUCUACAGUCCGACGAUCACUCACAUGACAGAGCAACUCUGAAUGCAAAGUGACAUCUUCACAAAUGCCAUGGCCAUUGCUGACCCAUGAUUCAGCUAAGUUAAGCAGUCAUAAGGAAAGAAUUACGUUGGAAUUCUCGGGUGCCAA | 0.272
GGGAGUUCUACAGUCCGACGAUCGGGACAGACCAGCCCCAGCCGCUGGGCCAACUUCCAAUCAUUCCAGCUAGAAGAGCUUCCCCCUGACACCCUGUGACUGAGCCUGUGUCCUGUCUGCCUGCCCAGCCAUGUGGAAUUCUCGGGUGCCAA | 0.94
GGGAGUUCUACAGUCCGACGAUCAAAUGACGUUUAUUAAAAACAUUCAACAAAUUGUUGCCUUUUUAAAAUUAUCACACUUGCACAUGAAGAUAAAACAUGAAGUAAUUGUGCUGGUAGCCUUUUGGGAAUUGUGGAAUUCUCGGGUGCCAA | 0.291
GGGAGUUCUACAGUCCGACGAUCCACAAGGUAUCAGAAGUACUUUCAGUCUACAGGUCUCUAUGUCCACAUAACUAAGGAAUGCCUAACUAAUGGAAACUUAAGUUCCUUCUAGCCAUUAAAACAGAGAGAAGUGGAAUUCUCGGGUGCCAA | 0.224
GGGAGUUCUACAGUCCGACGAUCUCCUUUUGCUUCCACCACCACUAGCUUCUUUGGAAUCUUGGGGUGGGGGUCAUCUUUGGGGAUUAUGGCUGCCACCCGGGAUUUGAGUGUAGGGAGUGUGGGAGCAGCCUUGGAAUUCUCGGGUGCCAA | 0.553
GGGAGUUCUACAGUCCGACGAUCUUCUUUCUUGUAGUAGUUGAGACAGAGCUCUUAUUUACUGUAAUGCUAAAUGAAACAGUGGCUUAAAUAUUUUAAUGGGAAAAGAGAACACAGUGCGUUCCAUAUUGUGAUGGAAUUCUCGGGUGCCAA | 2.01
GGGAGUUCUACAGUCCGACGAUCCCUCUCUUUGCUAAAGCAGUGAAGGAAGAGAACAGAGACAAACUCUUUGGACUGUGAAAGAGAAGGUAGAGAAUUCCAGGCAACAGUCUGACCAAGGGUGUAAACCAGUUUGGAAUUCUCGGGUGCCAA | 0.506
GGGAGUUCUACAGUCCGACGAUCCAUAUCCUACACAGAAAAAUACUUUUAGACUUAUAUUGCCAAGCCAAAGUUACCAUAUUUUGGUGUUUUUGUGUUUUCUCUUUAUAAGGCAAAAAGAUCUGUAUUUACACUGGAAUUCUCGGGUGCCAA | 0.352
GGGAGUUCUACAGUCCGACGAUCCUCAUUUGGUUUGAUUUUCCCUCUACUAAGGCUUUCCUACCUUCUUCAGGCUGCCUAAGACAUGUAACGAAACACUUCAAUAAUUGUCCAUGAGGAGAAAAAAAGCAUGUUGGAAUUCUCGGGUGCCAA | 0.934
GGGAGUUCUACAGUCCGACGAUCCAUGCCUUCUUCAGUGGCUGAGGGAUGACAAGCAGGACUUCCUGAGAGUCAGUCUGAAGAGAACACAGCCCUGGAGCCCCCCGGCCUCCGGGAAGAAGGAGAAGGAGAUGUGGAAUUCUCGGGUGCCAA | 0.396

A few entries again (sample 2):
Oligonucleotide | E-score
CTTATATC | -0.077
AGGCCTAT | -0.177
ACGTTTGC | 0.0424
CTCTGGCA | -0.155
ATTGTACA | 0.00148
TCGGCAGA | 0.111
AGGCTAAG | -0.139
ATCACCTC | -0.0159
AATGCGCC | 0.237
AGCTAAAT | -0.133
ACCATGAT | -0.136
CACAGAGG | -0.199
TAGATACA | -0.0769
CAAGTATA | -0.117
AGATACCT | -0.13
